Assay results of several laboratories.
Parts stem from different laboratories: compare values within a part only. Positions count from the first letter of the parent shown.

Set 1 — technique: RNA Bind-n-Seq; molecule type: RNA; medium: in vitro; concentration: 1 µM; setting: whole 134-nt RNA, ends assumed; together with: 150 mM KCl; baseline: input library; reading: higher = stronger binding
Target: Ras GTPase-activating protein-binding protein 1, C-terminal RGG region (G3BP1, Homo sapiens, UniProt Q13283)
Chain of UniProt Q13283 (whole entry, looked up): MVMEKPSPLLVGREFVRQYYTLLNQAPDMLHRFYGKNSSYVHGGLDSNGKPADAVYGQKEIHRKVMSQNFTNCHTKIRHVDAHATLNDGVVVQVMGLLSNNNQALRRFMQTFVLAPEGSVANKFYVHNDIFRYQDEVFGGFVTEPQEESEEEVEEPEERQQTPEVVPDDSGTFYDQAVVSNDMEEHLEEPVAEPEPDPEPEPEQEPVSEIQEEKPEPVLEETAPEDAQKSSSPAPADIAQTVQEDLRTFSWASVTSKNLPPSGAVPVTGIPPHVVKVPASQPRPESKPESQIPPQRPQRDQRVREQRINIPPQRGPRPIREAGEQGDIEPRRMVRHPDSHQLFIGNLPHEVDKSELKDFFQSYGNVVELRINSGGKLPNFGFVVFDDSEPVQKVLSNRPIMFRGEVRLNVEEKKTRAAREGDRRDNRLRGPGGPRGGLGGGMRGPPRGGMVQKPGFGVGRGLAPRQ
All sequences stand within: GGGAGUUCUACAGUCCGACGAUC … UGGAAUUCUCGGGUGUCAAGG
Strand | log2 enrichment
ACCAUGCAGGUGGGCAUCUUUGGGAAGUGGGGAAAGGGGGGGAUAGGGAGGGGGGUAACACUUUGGGAACAGGUGGUCCCAGGUCGUUUC | -0.707
CCUGUGCUACACAUCGUAUGUACCGAAUCGGGAAAAAAGGAAAAAAGGGGAAAAAAGGGGAAAGUAUUAUGUUACGCCGUUCGGAUCUGC | -1.68
UAACUUUAGAGGAGGCUCUGAUGGAUAUGGCAGUGGACGUGGAUUUGGGGAUGGCUAUAAUGGGUAUGGAGGAGGACCUGGAGGUGGCAA | -1.36
CAAGUCCUGUGCUACACAUCGUAUGUACCGAAUCGGGGCCCGGCCCGGGCCCGGGAAAGUAUUAUGUUACGCCGUUCGGAUCUGCACUUC | -2.09
AAGUCCUGUGCUACACAUCGUAUGUACCGAAUCGGGGAAAGGGGAGGGGUUUGGGGAAAGUAUUAUGUUACGCCGUUCGGAUCUGCACUU | 2.16
CCAGGAAGUAAAAACAAAUGGAAAUGCUUCGGAUAGUGGCAGGGGUGGGGGUUGCUAAGGAAAGGGUGGGAUGGGAGUGGGUAAAGAGUU | 1.88

Set 2 — technique: RNA Bind-n-Seq; molecule type: RNA; medium: in vitro; concentration: 365 nM; baseline: no-protein control; reading: higher = stronger binding
Target: RNA binding protein fox-1 homolog 2, RRM domain, GST-SBP tag (RBFOX2, Homo sapiens, UniProt O43251-10, residues 100-194)
Setting: natural RNA segment, single round, ends assumed
All sequences stand within: GGGAGUUCUACAGUCCGACGAUC … UGGAAUUCUCGGGUGCCAA
Residues (chain): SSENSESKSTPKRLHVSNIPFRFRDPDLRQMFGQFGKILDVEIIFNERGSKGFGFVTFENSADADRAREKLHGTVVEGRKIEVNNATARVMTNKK
Strand | RBNS enrichment (R)
GUCUAACCCUUUCUGUGUGGCAGAAAAAUAUGUUUUCCAGGUAGUUUUUACUACUACAGAGAGUCUGUAAAUAAGUGCUUUAAAAAAAUAACAAACCAAUAAGAUAUUUG | 0.58
CAAGAGUGCAGGAGUGGACUCUCCACUGAUGGGUCUCCCUCCCCAUCCUGGUUUCCACCCCGGGCUGGCUAGCUCUGUUGGUUUGAAGACUGACAGCCAGCCUGGCUCAU | 0.641
GGCUCCUGGUGAAGAGAGGGUGGAAAGGCCCUUCAGCCCCAGGGCCAUGUCUGGGUUCUCCAUGCCCAUCAGUCUCUGCAGUUUCUCUACCUGCCCCCAGAGCUGAGGCC | 0.337
AGGGGCAAGGUACCCGCUGAGGUGUGUGGGCUGACUGGAGGUCCUGGAUCCCCCUACUGCUCCCAGGAAUUGGGCUCCUGACAGCAGUCUGCUACCACAACCCCAGGCGG | 0.566
AAGGGCAAAGGCUAUGAGGUAGAGGGAGGUGACAGGCAUUGCAGGUGGCAGACUGACUUUGGACAGUGAGACCCUGACCUUGCUGCAUUGCUUUGCCUUCACCACCGCUA | 1
AAAAUGAAAGCCAAAUUUAUAUGCCACCGAUUGCAGGACACAAGCACAGUUUUAAGAGUUGUAUGAACAUGGAGAGGACUUUUGGUUUUUAUAUUUCUCGUAUUUAAUAU | 0.732
UUCUCCUUAGUCUUCCUGACUCAACCCGUGGUCUCUGUCCCGCUCCCCCUCUCUGUGGCAGUUUCAUAUUUGCUAAUACGAAUUUGCUCAUUAAACAUUUUGUUGUAUUU | 0.783
AAGAAGCAGACUCAAUUCGAGAAUUAAAUGUGUCUGUCAUUGUGUUGAAUUUUGAUUUGUCCUUGGUGGACAACUGGCUUUACCCAGUGAAGAGGGCCAGGACAGAUUGG | 0.393

Set 3 — target: CCNF, cyclin fold, Cln2 fusion (human); technique: yeast growth competition, sequencing; medium: yeast; setting: strong parent motif; baseline: not given; reading: higher = stronger binding
Parent: RBL2 docking peptide (human); STTRRRLFVENDS; partner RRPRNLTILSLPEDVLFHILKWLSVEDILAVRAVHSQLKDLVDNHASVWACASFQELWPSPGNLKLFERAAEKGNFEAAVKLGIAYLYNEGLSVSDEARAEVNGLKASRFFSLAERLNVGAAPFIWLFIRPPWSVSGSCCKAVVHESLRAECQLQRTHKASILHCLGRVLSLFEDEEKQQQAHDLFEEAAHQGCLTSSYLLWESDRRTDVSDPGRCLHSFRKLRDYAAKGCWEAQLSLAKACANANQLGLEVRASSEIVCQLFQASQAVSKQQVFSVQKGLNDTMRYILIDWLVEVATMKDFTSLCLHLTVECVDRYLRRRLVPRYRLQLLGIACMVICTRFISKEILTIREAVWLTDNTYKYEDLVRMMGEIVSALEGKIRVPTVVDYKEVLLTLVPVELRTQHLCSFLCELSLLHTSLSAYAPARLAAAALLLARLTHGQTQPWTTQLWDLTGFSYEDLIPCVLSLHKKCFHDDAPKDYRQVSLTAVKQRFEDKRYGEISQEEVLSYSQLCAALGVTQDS
Change | normalised enrichment score
T3R | 2.34
E10C | 7.41
D12Y | 9.02
E10M | 7.91
S13Q | 7.18
L7I | 4.03
S13D | 8.91

Single results of other studies
Molecule | target | assay | system | conditions | scale | measurement | result
PhoQ, residues 284 288 289 292 302 303 GASLAW | PhoP, residues 12 14 15 18 19 SGWQI (Escherichia coli, UniProt P23836) | Sort-seq, measured: YFP reporter | E. coli | PhoQ-PhoP variant library, together with: 10 µM Mg2+ | baseline: high Mg2+ state, higher = stronger signaling | fold induction | 0.369

Some of these lines once more (set 1):
Strand | log2 enrichment
CCUGUGCUACACAUCGUAUGUACCGAAUCGGGAAAAAAGGAAAAAAGGGGAAAAAAGGGGAAAGUAUUAUGUUACGCCGUUCGGAUCUGC | -1.68
UAACUUUAGAGGAGGCUCUGAUGGAUAUGGCAGUGGACGUGGAUUUGGGGAUGGCUAUAAUGGGUAUGGAGGAGGACCUGGAGGUGGCAA | -1.36
CAAGUCCUGUGCUACACAUCGUAUGUACCGAAUCGGGGCCCGGCCCGGGCCCGGGAAAGUAUUAUGUUACGCCGUUCGGAUCUGCACUUC | -2.09
